Results gathered from unrelated publications.
Each numbered part is a random draw from the data of one study; scales do not carry over between parts.

Series 1
Target: TAR DNA-binding protein 43, full length, His tag (TARDBP, Homo sapiens, UniProt Q13148, residues 1-414)
Method: RNA Bind-n-Seq
Molecule type: RNA
Sample: in vitro
Tested at: 20 nM
Notes: 6-mer, flanks averaged, single round
Added: 150 mM LiCl
Baseline: input library
Reading: higher = stronger binding
| Oligonucleotide | 6-mer enrichment (R) |
| --- | --- |
| CUCUAA | 0.86 |
| AUAGAA | 0.917 |
| CUUGAC | 1.07 |
| ACUCGA | 0.794 |
| CCAUGU | 0.993 |
| ACAACC | 0.838 |
| AUACGG | 0.879 |
| UGGCGA | 1 |

Series 2
Target: Histone acetyltransferase KAT6A, winged helix 2, GST fusion (KAT6A, Homo sapiens, UniProt Q92794, residues 85-181)
Method: protein binding microarray
Molecule type: double-stranded DNA, one strand shown
Sample: in vitro
Tested at: not given
Notes: 8-mer, flanks averaged, mean of 2 arrays, mostly near background
Baseline: not given
Reading: higher = stronger binding
Residues (chain): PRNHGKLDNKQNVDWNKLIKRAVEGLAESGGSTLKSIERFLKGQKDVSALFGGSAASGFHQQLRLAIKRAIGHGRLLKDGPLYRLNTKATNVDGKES
| Oligonucleotide | E-score |
| --- | --- |
| AACTCTGT | 0.0226 |
| AATCCATA | -0.0594 |
| AGACGAAA | 0.0763 |
| CCAGTAAA | -0.0159 |
| AGGTTCTC | -0.0404 |
| ATTGTCGG | -0.046 |
| AGTTCAAG | 0.0742 |
| AAACGGCA | 0.045 |
| GATCGGTA | 0.0404 |
| TAACCCAA | -0.129 |
| CATACAGG | -0.0732 |
| ATTGTTTA | 0.0354 |
| CGTTCCCA | -0.0507 |
| AAGACAAC | 0.116 |
| CTCATTCC | -0.0952 |
| ATATGCGC | -0.0581 |
| GAGCCTGA | 0.0417 |

Series 3
Target: RING finger protein unkempt homolog, zinc fingers 1-6, GST-SBP tag (UNK, Homo sapiens, UniProt Q9C0B0, residues 30-357)
Method: RNA Bind-n-Seq
Molecule type: RNA
Sample: in vitro
Tested at: not given
Notes: RNA with constant flanks, human-mouse chimeric sites, ends assumed
Baseline: input RNA pool
Reading: higher = stronger binding
Constant ends, left off below: GGGAGUUCUACAGUCCGACGAUC … CAACAGAGGAUUGAGCAUCA
Construct (chain): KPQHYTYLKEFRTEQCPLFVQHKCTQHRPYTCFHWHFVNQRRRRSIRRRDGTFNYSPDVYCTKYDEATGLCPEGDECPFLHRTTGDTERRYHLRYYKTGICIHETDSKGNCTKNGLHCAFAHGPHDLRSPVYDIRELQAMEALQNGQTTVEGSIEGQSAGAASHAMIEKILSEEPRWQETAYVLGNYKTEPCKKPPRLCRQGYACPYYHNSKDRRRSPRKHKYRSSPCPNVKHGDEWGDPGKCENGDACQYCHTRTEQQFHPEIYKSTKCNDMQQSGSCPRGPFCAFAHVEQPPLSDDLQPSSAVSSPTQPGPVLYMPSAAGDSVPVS
| Oligonucleotide | bound/input enrichment [ratio] |
| --- | --- |
| UUGCUACUGACUCCCUGGGUCAAGUUCCUGUGGGAAUCUUACAGGCAGUGUUUGGACCUUCUUCGAAACAAUUCUAGAGUAGAGCGCCUGUACCAUGAUAUCGCCCAACAAGCUUUCAAA | 0.184 |
| CUCAUGGCUGCAGAAACAGGAAGUGGAAAAACUGGUGCAUUUAGUAUUCCCGUUAUCCAGAUAGUGUAUGAAACUCUGAAAGACCAACAGGAAGGCAAAAAAGGAAAAACAACUAUUAAA | 0.677 |
| AAAGAGAAAGCUAAAACACUAAUAGAGAAGAGGAUUGGCAAAGAGAAUUUCAUAGAGAAACUAGGAUUUAUUAGCAAACAUGAGUUAUAUUCCAGAGCGUCUCAGAAACCCCAGCCAAAC | 6.88 |
| UAUUUUUGACAGCCACACAAUCUUGGCAUGUAUUAAGGAAAAAAAAAAUCCCUGUUCAAGUAGUUUUUCCACCUAUCAGCACUGAGUAAAUGCCAUAACUCCGCGGAAAUGGUCUAAAUA | 0.235 |
| CUUCGGAAAAAAAAAUUACCUUUUCUGACAGUGCUUUCCCUCCCAUAGGUCCAGGUUCAAGCUCAAAGAGCAAAGGCUUUGCACGGAGCUCAAACAUCUGAUGAAGAAAGAUUUCUGAGA | 0.253 |
| GCGGCAGAAUCAUGGUGGACAUAAUGCACUUGCCCAGAGCGCGCGUCAACGCCAGCAUGUUACCACAGUAUAUCGACCGGCCCGUGUGCUUCGUGGGGAAGCUGGAAAAGAUUCAUCCCA | 0.1 |
| CACACACUCUUCUGCGGCACCCUCAUUUUGCAGGCCCGAGCCUACGUGGGACCGCACGUCCUGGCAGUGGUGACCCGCACAGGGUUCUGCACGGCAAAAGGGGGCCUGGUGAGCUCCAUC | 0.096 |
| AGAGAAAUGAGAAAGAAUCUUACACAAGAAGAGAUGCAAAGAAUGUCUACUAGAGUCCUUUUGGCGACUCUUUCCAUCCCUAUUACUCCUGAGCGUACUGAUAUUGCUCGACUUUUGGAU | 0.0893 |

Other studies, line by line
| Molecule | target | test | test system | conditions | how to read | quantity | result |
| --- | --- | --- | --- | --- | --- | --- | --- |
| PhoQ, residues 284 288 289 292 302 303 WVSSAF | PhoP, residues 12 14 15 18 19 TQAIL (Escherichia coli, UniProt P23836) | Sort-seq, measured: YFP reporter | E. coli | PhoQ-PhoP variant library, added: 10 µM Mg2+ | baseline: high Mg2+ state, higher = stronger signaling | fold induction | 9.96 |

For quick reference, copied from above (series 2):
| Oligonucleotide | E-score |
| --- | --- |
| CTCATTCC | -0.0952 |
| ATATGCGC | -0.0581 |
| GAGCCTGA | 0.0417 |
